Experimental data of several laboratories.
Each numbered part is a random draw from the data of one study; scales do not carry over between parts.

Sample 1 — organism: SARS-CoV-2; observed: cytopathic effect; cells: Vero E6; concentration: 10 µM; measurement: inhibition
SMILES = Nc1ccc(S(=O)(=O)Nc2ncccn2)cc1; value = -22.9%
SMILES = CN(C)S(=O)(=O)c1cccc(-n2sc3ccccc3c2=O)c1; value = -1.9%
SMILES = O=C1C[C@@H]2OCC=C3CN4CC[C@]56c7ccccc7N1[C@H]5[C@H]2[C@H]3C[C@H]46; value = -14.1%
SMILES = O=c1c(O)c(-c2cc(O)c(O)c(O)c2)oc2cc(O)cc(O)c12; value = -3.3%
SMILES = O=C(/C=C/c1ccc2ccc(C(F)(F)F)cc2n1)c1ccncc1; value = 0.32%

Sample 2 — observed: enzyme activity; action: inhibitor; concentration: 20 µM; measurement: inhibition
Target: Replicase polyprotein 1ab, polymerase (rep, Severe acute respiratory syndrome coronavirus 2, UniProt P0DTD1)
Compound = Cc1ccc(S(=O)(=O)n2c(N)nc3ccccc32)cc1; value = -2.56%
Compound = CCc1cccc2c3c([nH]c12)C(CC)(CC(=O)O)OCC3 (stereo not drawn); value = 0.97%
Compound = NC(=O)CC[C@@H]1NC(=O)[C@H](Cc2ccccc2)NC(=O)[C@H](Cc2ccc(O)cc2)NC(=O)[C@@H](N)CSSC[C@@H](C(=O)N2CCC[C@H]2C(=O)N[C@@H](CCCN=C(N)N)C(=O)NCC(N)=O)NC(=O)[C@H](CC(N)=O)NC1=O; value = 2.17%
Compound = CC(=O)N1CCC[C@H]1C(=O)N[C@@H](Cc1cnc[nH]1)C(=O)N[C@@H](CO)C(=O)N[C@@H](CS)C(=O)N[C@@H](CC(N)=O)C(N)=O; value = -4.08%
Compound = COc1ccc(CCNCC(O)COc2cccc(C)c2)cc1OC (stereo not drawn); value = 1.76%
Compound = CCC(N)C(O)c1ccc(O)c(O)c1 (stereo not drawn); value = -0.83%
Compound = CC(C)[C@H]1[C@@H]2CC[C@@H](C2)[C@@H]1N; value = 0.78%
Compound = Cn1cnnc1Sc1c([N+](=O)[O-])ncn1C; value = 2.96%
Compound = CC(=O)C(=O)O; value = 1.12%
Compound = CNC(=O)c1c(F)cccc1Nc1nc(Nc2cc3c(ccn3C(=O)CN(C)C)cc2OC)nc2[nH]ccc12; value = 2.78%
Compound = CC1CCc2cc(F)cc3c(=O)c(C(=O)O)cn1c23 (stereo not drawn); value = -2.83%
Compound = CCC(=O)O[C@]1(C(=O)CCl)[C@@H](C)C[C@H]2[C@@H]3CCC4=CC(=O)C=C[C@]4(C)[C@@]3(F)[C@@H](O)C[C@@]21C; value = 2.65%
Compound = CC(Cc1cccc(C(F)(F)F)c1)NCCOC(=O)c1ccccc1 (stereo not drawn); value = 1.59%
Compound = CCN(CC)CCc1nc(-c2ccccc2)no1; value = -2.85%
Compound = Oc1ccc(CC2NCCc3cc(O)c(O)cc32)cc1 (stereo not drawn); value = -1.41%
Compound = COC(=O)c1ccccc1O; value = 2.05%
Compound = C/C=C1/[C@H](O[C@@H]2O[C@H](CO)[C@@H](O)[C@H](O)[C@H]2O)OC=C(C(=O)OC)[C@H]1CC(=O)OCCc1ccc(O)c(O)c1; value = 1.08%
Compound = NCCCNCCSP(=O)(O)O; value = -0.05%
Compound = Cc1cccc(C)c1NC(=O)C1CCCCN1C (stereo not drawn); value = -1.32%
Compound = O=c1c(-c2ccc(O)cc2)coc2cc(O)cc(O)c12; value = 8.12%
Compound = CCCCC/N=c1\ccn(Cc2ccccc2)c2ccccc12; value = -6.06%

Sample 3 — method: protein binding microarray; form: double-stranded DNA, one strand shown; sample: in vitro; concentration: not given; baseline: not given; reading: higher = stronger binding; measurement: E-score
Target: Histone acetyltransferase KAT6A, winged helix 2, GST fusion (KAT6A, Homo sapiens, UniProt Q92794, residues 85-181)
Notes: 8-mer, flanks averaged, mean of 2 arrays, mostly near background
Construct (chain): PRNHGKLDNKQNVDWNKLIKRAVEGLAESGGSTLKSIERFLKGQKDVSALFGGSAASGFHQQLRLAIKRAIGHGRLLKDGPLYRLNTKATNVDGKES
Strand = GGCTCAGA; value = 0.0281
Strand = AGGTTCAC; value = 0.1
Strand = AGTTATAT; value = -0.0408
Strand = GTATTTTA; value = -0.00186
Strand = ATTGTTTG; value = -0.0247
Strand = ACTATAGT; value = -0.0888
Strand = GATGATCC; value = 0.0569
Strand = CCAGAGTA; value = -0.0232

Sample 4 — method: protein-binding microarray; form: double-stranded DNA, one strand shown; sample: in vitro; concentration: 2540 nM top; notes: 60-bp whole probe; added: salmon DNA 0.4 mg/ml; baseline: random background probes; reading: higher = stronger binding; measurement: fitted relative affinity; all sequences stand within: GCCTAGCAC … GTCTTGATTCGCTTGACGCTGCTG
Target: Interferon regulatory factor 3, full length, phosphomimetic (IRF3, Homo sapiens, UniProt Q14653, residues 1-427, S386D/S396D/S398D/S402D/T404D/S405D)
Target sequence (chain): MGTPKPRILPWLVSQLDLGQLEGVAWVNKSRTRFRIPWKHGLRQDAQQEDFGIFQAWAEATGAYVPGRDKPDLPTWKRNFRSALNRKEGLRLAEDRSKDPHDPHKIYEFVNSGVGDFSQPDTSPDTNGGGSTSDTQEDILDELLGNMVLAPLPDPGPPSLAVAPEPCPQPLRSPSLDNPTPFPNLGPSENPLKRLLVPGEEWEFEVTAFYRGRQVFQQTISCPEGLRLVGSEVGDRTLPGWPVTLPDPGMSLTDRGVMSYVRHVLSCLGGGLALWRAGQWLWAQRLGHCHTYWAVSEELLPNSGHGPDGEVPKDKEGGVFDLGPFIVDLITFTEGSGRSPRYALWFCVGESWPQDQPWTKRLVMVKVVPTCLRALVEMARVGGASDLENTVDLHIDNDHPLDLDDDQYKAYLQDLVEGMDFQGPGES
Strand = GACGGACTGCTACTGCTGAGGTGCTAG; value = -0.839 z-score
Strand = GACGGTTTCCTTATCCTAACGTGCTAG; value = 7.97 z-score
Strand = TTACATATCGGGACTGGATTAGTGCTA; value = 0.437 z-score
Strand = TCATTTCTTTGCTTCACACTGTGCTAG; value = 1.96 z-score
Strand = TCATTTTTTTTTCTGATACTGTGCTAG; value = 1.71 z-score
Strand = GTTTCATTCCTGATCTCTGGGTGCTAG; value = 4.28 z-score
Strand = TCCTCTTTTTTGTTCCACGCGTGCTAG; value = 1.87 z-score
Strand = TCACCCCTTGCTTTCCAACTGTGCTAG; value = 1.12 z-score
